Measured values from different studies.
Numbered parts are unrelated; each lists some results of a single study.

Block 1
Target: Histone acetyltransferase KAT6A, winged helix 1, GST fusion (KAT6A, Homo sapiens, UniProt Q92794, residues 1-85)
Method: protein binding microarray
Form: double-stranded DNA, one strand shown
Medium: in vitro
Concentration: not given
Notes: 8-mer, flanks averaged, mean of 2 arrays, mostly near background
Relative to: not given
Direction: higher = stronger binding
Construct (chain): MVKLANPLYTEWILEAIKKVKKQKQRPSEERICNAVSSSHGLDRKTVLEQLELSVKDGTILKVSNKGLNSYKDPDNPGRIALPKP
Sequence	E-score
CGAATGGA	-0.22
GTCCACTA	-0.189
GCAACGGA	0.275
AACCGACT	0.068
AGTCCCCG	0.157
AACACAGC	-0.106
GTGGAGCA	-0.111
ATGGTGAC	-0.163
CATCGCGG	0.342
CAGTTCCC	0.163
TAGCTCAA	-0.0948
CAGTAAGC	-0.0644
ACCCCTCC	-0.23
AGATACCG	0.191
GAAAGTCA	-0.117
ACCTTTTC	-0.159
GAGTTAAC	-0.14
TAATGGAA	0.00036
AACCACAA	-0.0191
GCAGCGCC	0.389
AATACCAG	-0.208
TAAAGTTA	-0.0369
AGGGATGG	-0.105
GCCCTTGA	-0.0204
ACACGGGA	0.208

Block 2
Target: RNA binding protein fox-1 homolog 2, RRM domain, GST-SBP tag (RBFOX2, Homo sapiens, UniProt O43251-10, residues 100-194)
Method: RNA Bind-n-Seq
Form: RNA
Medium: in vitro
Concentration: 365 nM
Notes: natural RNA segment, single round, ends assumed
Relative to: no-protein control
Direction: higher = stronger binding
All sequences stand within: GGGAGUUCUACAGUCCGACGAUC … UGGAAUUCUCGGGUGCCAA
Construct (chain): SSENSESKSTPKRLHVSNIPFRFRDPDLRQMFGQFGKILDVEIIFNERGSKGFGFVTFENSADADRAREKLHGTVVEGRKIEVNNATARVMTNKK
Sequence	RBNS enrichment (R)
CUACAUCAGCUGACCUGAAACUCAGGGGACUCUGGAACACCAUGGACCCUGGGGGCUGUGCCCCCAUCUCCUCCCCACCCCAGGUCUAGUGGCCCCACCCUCCAUUCCGG	0.299
CUGGCCACAGUGAGGCAUGUAUCUGUAGUUCCUUGCUGAAUAACAAGAAGAUAUAUGUUUGUAUAUCUACAUGGCAUCCUGCACCUCAGAGCUAAGACAGGUUGCACGUC	3.36
ACAUUUCAUAAUGUUGGCACUGGAGUAUUAUAAGAGAUCAUGAAUGUUUCCUUAAUUAUCAUGGCAAGAUUACCUCACGUUCAGUAUAGUUUAGUUUUGUGUGUAUCUUA	0.652
UGUAUUGUUAUUGGCUGUAAACGUCUGUCUGGACCGAAUAAAGAUUCAUUCACGUGGCCUCUGCUCCUGUGUGGUCUGAGCAGGCUUCAUCUCUGUUUCUCUCAAGGCGU	0.756
ACAUUUGUCAUGUGGGAAGAAUUUAGAUUAUGAUGCAGGAAAUUUCUUCCUGGGGUCAGAAGUUUCUAAGAAGUCCUGUAUUUUUUAAGAAAUGGAAUUUAUUUAAAUAC	0.817
UAAAGAUUCCUGGCAUACAGGCCUGCUCUAUAAAUUUGUUUUCCCCUUCCCUGCCAGCAGUCUUCUCCAUACACGACAGGGCGUGUUCUCCACCAGGCCUGUAACAUCUU	0.899
CUUGCUGUGAAGAACAGAGCCCACCCCAUAGCCUAAAUCUGUCCCUUCUAUUCCUUGUCCCCUCCCUGAGUUAGCUGGGCCUUGGUUCUGGGUCCCUGAGCAGGAGGAGG	0.575
CACCACAGGCUCCCCUGGGAGGACGAGGGAAACGCUGAUGAGACGCUGGGCAUCUCUCCUCUGUGGCUCUAGGACAUCUGUCCAGGAGGCUGGGCGGAGGUGGGCAGGAU	0.48
AGUCAAGUCUCAGCUUUACCACUAACUAGCUGUGUGGCCUUGAGCAAAUACUAUUACUUCUCUGAGCCUCCGUUACGCCGUCUGUAAAAAGGGAGGUGAAAAUACCUACC	0.271
AGGAGCCCAAACACCUUGGUCUUCCUGGGUGGGGGCAUAAUUAAGGGAAGGGAGUGUAUAAGGAAGGAAACCUCAUACCCUCCAUUCCCAUCCCUGGAUAUAUUGCCUUU	0.209
AAUUUAUAAGUAACACUGUUGAAACCCUGAUCCCAGUGGAGGCUGUAACCCACCUGCCCCCGCACCACCCCCCUGACCCCUGUUACCGCAUUUGUGUGUAUUAAUGCUGA	0.902
CCGCAUGCUCCCUACUCCCCCACGUCUUGAUGGAACAGGUGCAUUCAAGCUAGGAAACGGAGAGAACACAGCUUGUUCAAAAGGGUUGAAUUUGGGCUCAAUCCAUAAUU	3.95

Block 3
Target: RING finger protein unkempt homolog, zinc fingers 1-6, GST-SBP tag (UNK, Homo sapiens, UniProt Q9C0B0, residues 30-357)
Chain of UniProt Q9C0B0 (30-357, looked up): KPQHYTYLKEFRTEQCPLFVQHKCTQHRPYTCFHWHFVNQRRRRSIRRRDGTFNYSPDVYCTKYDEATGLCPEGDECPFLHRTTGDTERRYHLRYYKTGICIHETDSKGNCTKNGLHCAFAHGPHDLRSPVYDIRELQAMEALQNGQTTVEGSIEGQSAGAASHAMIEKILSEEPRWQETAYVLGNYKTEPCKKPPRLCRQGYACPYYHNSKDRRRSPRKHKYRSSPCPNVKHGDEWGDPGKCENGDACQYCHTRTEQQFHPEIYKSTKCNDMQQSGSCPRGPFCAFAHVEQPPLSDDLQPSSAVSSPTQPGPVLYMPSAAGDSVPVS
Method: RNA Bind-n-Seq
Form: RNA
Medium: in vitro
Concentration: not given
Notes: RNA with constant flanks, human and mouse sites, ends assumed
Relative to: input RNA pool
Direction: higher = stronger binding
All sequences stand within: GGGAGUUCUACAGUCCGACGAUC … CAACAGAGGAUUGAGCAUCA
Sequence	bound/input enrichment [ratio]
AAAAACAGGCUGCCAGCAAACAGCCUUCCUCAGGAGGGAGAUGUAGUGUUGACGACAGUGCAAUUCUGGAUUGCCAGUUCAGUGAAUUUUAUCAUACUCCUCCACCUGGUUUUGAAAAAA	0.208
CAUUUGGACCUUACUCAUCCAGUAGAAGAUGGAAUUUUUGACUCUGGAAAUUUUGAACAGUUUCUACGGGAGAAGGUUAAAGUCAAUGGAAAAACUGGAAAUCUUGGCAAUGUUGUUCAC	0.0874
CCAAAGAAGAUACAGUUUGAAGACAGAAGUGUACUCUCUACAAUGCAAUUUACUGUACAGUUAGAAAGCAAAGUGUUAAAUGGAGAAGAUACUUGUUUUUAUUAAACAUUUUGAGAUUUA	0.156
GGAUUCAGGAACAUCAUCGCAGAUCCUGUCACCUUCAAGACCAAAUCGAGCUAUGUUGCCUUAGCUACAUUGCAAGCCUACACCUCUAUGCAUCUAUUUUUCCAAUUCAAGACAACAUCU	0.602
ACACCUAGUGACCGUUCCAGAUACAGGUUAGAUUUGGAAGGAAAUGAGUAUCCUGUUCAUAGCACUCCAAAUUGUCACGAUCAUGAACGUAACCAUAAAGUGCCUCCACCUAUUAAACCU	0.247
UUCUUUUUUAUUAAACAGUGAUAAGAUUUUGUUACCAAGCAGCAUUUGAUAAAAGGUUCACUGGUUUUGGUAAACAAUAAACACUUUUAUAACAGCUAUUGUACAGUUGGCUGGUGCUCC	0.366
GAGCAAGACAACGGAGGCACCACAGAGUCUGUGAAAGAACAGGAGAUGAAGUGGACAGACCUGGCCUUACAGGGCCUCCACGAGAACGUCCCACCCGCUGGAAACUGAUGCCGGGCUCCU	0.138
GUUGCCAACUUGAAUAGAAUUAAGUUGAACAGUAAACAGUGUAGAAUAUACCGAGUCCGGAUCAAUGACUUGGAGGCCGCUUUUAUUUAUAAUGAUCCAACCUUAGAAGUUUGUCACAGU	1.47
UAAGAAAUUGUUAUUCUACUAAUAUUUACUUGUGAUUGUGUGACAAGUGUGUUUACAGAUUAUUGGUUACACUUCAAUUUACAGGGCAUAAACAAUGAUUAUCUAUUACUCUGAACUUUA	0.385
AAUGCUGUGUAGACUCGGCUCUUGUAAAAGCAGUAGGAGCCUGAGAGUGCUCGUGUUUCCCCGAGUCCUCUGGCUGCCAAAGUCUCUGCUGCAAGGUCGAGGUUUGUUUUCUCAAAGUUU	0.119
GGAGAUGGUCCUAUGUGUCGCCCAGAAAUUGUGUUACCAGGAGAAGACACACAUCCCUUCUUAGAGUUUAAAGGGUCACGACAUCCCUGCAUUACAAAGACUUUUUUUGGAGACGAUUUU	0.716

Block 4
Target: Prothrombin, mature alpha-thrombin (F2, Homo sapiens, UniProt P00734)
Method: aptamer microarray, sandwich
Form: DNA with 2'F-ANA
Medium: in vitro
Concentration: 200 nM
Notes: whole 15-mer aptamer, many near background
With: Cy3 exosite-II aptamer, 400 nM
Direction: higher = stronger binding
Sequence: GGTTGGTGTGGTTGG
Modification	mean fluorescence intensity [a.u.]
2'F-ANA at 2 3 4 5 8 10 12 13 14	49
2'F-ANA at 4 7 12 13	428
2'F-ANA at 1 2 3 6 8 11 12 14 15	83.8
2'F-ANA at 1 3 5 7 11 12 15	102
2'F-ANA at 3 4 5 6 8 11 13 14	47.3
2'F-ANA at 2 4 5 8 11 14 15	49.4
2'F-ANA at 2 4 11 13 14	89.3
2'F-ANA at 1 2 3 4 5 8 11 12	95.5
2'F-ANA at 2 3 6 14	383
2'F-ANA at 3 5 6 11 12 15	182
2'F-ANA at 1 2 4 6 7 11 13 14	49.9
2'F-ANA at 1 2 3 5 6 7 9 12 13 15	75.1
2'F-ANA at 1 2 7 9 12 15	337
2'F-ANA at 7 8 10 12 13 14	108
2'F-ANA at 3 4 7 9 13 14	301
2'F-ANA at 1 2 3 5 9 11 13	47.7
2'F-ANA at 4 8 11 13 14 15	91.2
2'F-ANA at 2 4 5 7 8 11 12	176
2'F-ANA at 1 4 5 7 8 9 12 14	64.5
2'F-ANA at 1 4 5 6 8 9 10 13 14 15	48
2'F-ANA at 2 3 4 5 6 7 8 9 15	132
2'F-ANA at 6 9 11 12	645
2'F-ANA at 1 2 3 5 6 10 13 14	43.6
2'F-ANA at 1 6 8 9 11 12 13	277
2'F-ANA at 2 6 8 9 13 15	270

For quick reference, copied from above (block 3):
Sequence	bound/input enrichment [ratio]
CAUUUGGACCUUACUCAUCCAGUAGAAGAUGGAAUUUUUGACUCUGGAAAUUUUGAACAGUUUCUACGGGAGAAGGUUAAAGUCAAUGGAAAAACUGGAAAUCUUGGCAAUGUUGUUCAC	0.0874
CCAAAGAAGAUACAGUUUGAAGACAGAAGUGUACUCUCUACAAUGCAAUUUACUGUACAGUUAGAAAGCAAAGUGUUAAAUGGAGAAGAUACUUGUUUUUAUUAAACAUUUUGAGAUUUA	0.156
GGAUUCAGGAACAUCAUCGCAGAUCCUGUCACCUUCAAGACCAAAUCGAGCUAUGUUGCCUUAGCUACAUUGCAAGCCUACACCUCUAUGCAUCUAUUUUUCCAAUUCAAGACAACAUCU	0.602
ACACCUAGUGACCGUUCCAGAUACAGGUUAGAUUUGGAAGGAAAUGAGUAUCCUGUUCAUAGCACUCCAAAUUGUCACGAUCAUGAACGUAACCAUAAAGUGCCUCCACCUAUUAAACCU	0.247
UUCUUUUUUAUUAAACAGUGAUAAGAUUUUGUUACCAAGCAGCAUUUGAUAAAAGGUUCACUGGUUUUGGUAAACAAUAAACACUUUUAUAACAGCUAUUGUACAGUUGGCUGGUGCUCC	0.366
GAGCAAGACAACGGAGGCACCACAGAGUCUGUGAAAGAACAGGAGAUGAAGUGGACAGACCUGGCCUUACAGGGCCUCCACGAGAACGUCCCACCCGCUGGAAACUGAUGCCGGGCUCCU	0.138
GUUGCCAACUUGAAUAGAAUUAAGUUGAACAGUAAACAGUGUAGAAUAUACCGAGUCCGGAUCAAUGACUUGGAGGCCGCUUUUAUUUAUAAUGAUCCAACCUUAGAAGUUUGUCACAGU	1.47
UAAGAAAUUGUUAUUCUACUAAUAUUUACUUGUGAUUGUGUGACAAGUGUGUUUACAGAUUAUUGGUUACACUUCAAUUUACAGGGCAUAAACAAUGAUUAUCUAUUACUCUGAACUUUA	0.385
AAUGCUGUGUAGACUCGGCUCUUGUAAAAGCAGUAGGAGCCUGAGAGUGCUCGUGUUUCCCCGAGUCCUCUGGCUGCCAAAGUCUCUGCUGCAAGGUCGAGGUUUGUUUUCUCAAAGUUU	0.119
GGAGAUGGUCCUAUGUGUCGCCCAGAAAUUGUGUUACCAGGAGAAGACACACAUCCCUUCUUAGAGUUUAAAGGGUCACGACAUCCCUGCAUUACAAAGACUUUUUUUGGAGACGAUUUU	0.716
